Measurements of several laboratories.
Each numbered part is a random draw from the data of one study; scales do not carry over between parts. Substitutions count along the parent as printed.

Sample 1
Target: Ras GTPase-activating protein-binding protein 1, full length (G3BP1, Homo sapiens, UniProt Q13283)
Chain of UniProt Q13283 (whole entry, looked up): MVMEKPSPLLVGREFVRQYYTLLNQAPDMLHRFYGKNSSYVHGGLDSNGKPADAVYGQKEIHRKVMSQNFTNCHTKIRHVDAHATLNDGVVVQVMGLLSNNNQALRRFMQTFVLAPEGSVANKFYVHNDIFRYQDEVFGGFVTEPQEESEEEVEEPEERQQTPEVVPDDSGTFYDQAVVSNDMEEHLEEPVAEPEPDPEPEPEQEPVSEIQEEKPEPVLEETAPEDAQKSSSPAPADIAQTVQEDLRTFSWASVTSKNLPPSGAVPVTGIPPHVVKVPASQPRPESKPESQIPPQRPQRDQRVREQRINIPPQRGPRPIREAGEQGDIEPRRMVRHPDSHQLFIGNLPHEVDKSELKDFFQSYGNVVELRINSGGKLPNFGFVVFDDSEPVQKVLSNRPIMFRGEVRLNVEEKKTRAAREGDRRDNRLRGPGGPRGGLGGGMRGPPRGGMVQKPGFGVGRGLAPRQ
Technique: RNA Bind-n-Seq
Form: RNA
Medium: in vitro
Concentration: 200 nM
Setting: whole 134-nt RNA, ends assumed
With: 150 mM KCl
Reference: input library
Direction: higher = stronger binding
Sequence | log2 enrichment
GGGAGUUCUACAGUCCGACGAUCAAGUCCUGUGCUACACAUCGUAUGUACCGAAUCGGGAAAAAGGGAAAAAGGGUGGGAAAGUAUUAUGUUACGCCGUUCGGAUCUGCACUUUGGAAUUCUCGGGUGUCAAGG | 0.477
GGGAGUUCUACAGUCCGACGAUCACCAUGCAGGUGGGCAUCUUUGGGAAGUGGGGCAAGGGGGGGAUAGGGACGGGGGUAACACUUUGGGAACAGGUGGUCCCAGGUCGUUUCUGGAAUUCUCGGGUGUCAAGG | 1.28
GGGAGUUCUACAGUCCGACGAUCUGGCCCUGGUGGCAUGCGGGGAGGAAGAGGUGGCCUCAUGGAUCGUGGUGGUCCCGGUGGAAUGUUCAGAGGUGGCCGUGGUGGAGACCGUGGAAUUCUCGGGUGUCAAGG | 0.122
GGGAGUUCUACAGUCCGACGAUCCAAGUCCUGUGCUACACAUCGUAUGUACCGAAUCGGAAAGGUUUGGUUUUUUUGGAAAGUAUUAUGUUACGCCGUUCGGAUCUGCACUUCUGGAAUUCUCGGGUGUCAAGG | -0.863
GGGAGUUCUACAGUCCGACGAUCCUGUGCUACACAUCGUAUGUACCGAAUCGGGGUUUGGGGAAAAAAAGGGGUUUUUUUGGGGAAAGUAUUAUGUUACGCCGUUCGGAUCUGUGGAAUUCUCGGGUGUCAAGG | -0.106
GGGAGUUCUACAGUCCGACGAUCCACAGACAACACGCACCCACACAGACACAGAGGGAAGGGGUUGGGAUGGGGACAGGGUGCACAGCAGGCCGGGGUAGGACCCCAGCCCCUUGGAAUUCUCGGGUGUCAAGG | 1.93
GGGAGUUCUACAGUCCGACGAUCUGGCCCUGGUGGCAUGCGGGGAGGAAGAGGUGGCCUAAUGGAUCGUGGUGGUCCCGGUGGAAUGUUCAGAGGUGGCCGUGGUGGAGACAGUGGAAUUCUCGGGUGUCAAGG | 0.601
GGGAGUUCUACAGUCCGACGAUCGCAGGAAGUAAAAACAAAUGGAAAUGCUUCGGAUACUGGCAGGGGUGGGGGUUGCUAAGGAAAGGGUGGGAUGGGAGUGGGUAAAGAGUUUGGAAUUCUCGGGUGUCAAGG | 0.939
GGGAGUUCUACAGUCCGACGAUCGUCCUGUGCUACACAUCGUAUGUACCGAAUCGGGAAAAAAAGGGAGGGUUUUUUUGGGAAAGUAUUAUGUUACGCCGUUCGGAUCUGCACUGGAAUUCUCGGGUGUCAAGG | -0.168
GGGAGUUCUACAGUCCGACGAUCCCUGUGCUACACAUCGUAUGUACCGAAUCGGUUUUUUUGGGUUUUUUUGGGGUUUUUUUGGAAAGUAUUAUGUUACGCCGUUCGGAUCUGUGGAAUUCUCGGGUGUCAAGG | -0.892

Sample 2
Target: CCND1, cyclin fold, Cln2 fusion (human)
Technique: yeast growth competition, sequencing
Medium: yeast
Setting: weak parent motif
Reference: not given
Direction: higher = stronger binding
Starting sequence: AKAP12 docking peptide (human); GSPLKKLFTSTGL; partner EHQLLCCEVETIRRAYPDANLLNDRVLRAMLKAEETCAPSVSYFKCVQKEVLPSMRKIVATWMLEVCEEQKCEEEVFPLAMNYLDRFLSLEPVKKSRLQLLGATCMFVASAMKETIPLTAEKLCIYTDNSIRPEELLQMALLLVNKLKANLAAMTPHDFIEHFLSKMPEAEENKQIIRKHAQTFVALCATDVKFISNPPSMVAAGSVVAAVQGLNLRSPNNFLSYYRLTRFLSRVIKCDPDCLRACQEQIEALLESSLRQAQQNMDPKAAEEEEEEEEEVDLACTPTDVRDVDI
Change | normalised enrichment score
GSPLKKLFTSTAL [G12A] | 0.0523
GSPLKALFTSTGL [K6A] | 0.701
GSPLKKLFTSTGA [L13A] | 0.446
GSPLKKLFASTGL [T9A] | 0.127
GSALKKLFTSTGL [P3A] | 0.687
GSPLKKLFTSAGL [T11A] | -0.374
GSPLRKLLTSTGL [K5R F8L] | 0.554

Sample 3
Target: Sal-like protein 4, full length isoform B (SALL4, Homo sapiens, UniProt Q9UJQ4-2, residues 1-616)
Technique: universal PBM
Form: double-stranded DNA, one strand shown
Medium: in vitro
Concentration: not given
Setting: 8-mer, flanks averaged, mean of replicates
Direction: higher = stronger binding
Sequence | E-score
AGGTCTAG | 0.0361
AGGGTCGG | -0.251
CCTCGCCG | -0.385
AGCTGGGC | -0.277
CAGGAAAA | 0.0541
AATAGTAC | 0.141
ACGTGCAT | 0.228
AAGCGGCG | -0.281
AACGACGT | 0.0122
GACGTAAA | 0.035
CAGAAGTA | 0.2
CAACTGCA | -0.0532
TGAGACCA | -0.0752
CATTCAGC | 0.018
TCCTTGCA | -0.214
CGACCGCG | -0.296
AATGGGCG | -0.192
AAGACCCT | -0.00259
ACACGTCA | -0.0172
CGCAGCGA | -0.317
ACGCAAGT | -0.0601
CTTTGATC | -0.109
ATTGCCCG | -0.147
CATACTCA | 0.205
CGATTACG | -0.0538

Sample 4
Target: Protein C-ets-1 (ETS1, Homo sapiens, UniProt P14921, residues 1-441, Y397A, full length assumed)
Technique: protein-binding microarray
Form: double-stranded DNA, one strand shown
Medium: in vitro
Concentration: not given
Setting: k-mer, scored over probes, only values ≥0.25
Direction: higher = stronger binding
Target sequence (chain): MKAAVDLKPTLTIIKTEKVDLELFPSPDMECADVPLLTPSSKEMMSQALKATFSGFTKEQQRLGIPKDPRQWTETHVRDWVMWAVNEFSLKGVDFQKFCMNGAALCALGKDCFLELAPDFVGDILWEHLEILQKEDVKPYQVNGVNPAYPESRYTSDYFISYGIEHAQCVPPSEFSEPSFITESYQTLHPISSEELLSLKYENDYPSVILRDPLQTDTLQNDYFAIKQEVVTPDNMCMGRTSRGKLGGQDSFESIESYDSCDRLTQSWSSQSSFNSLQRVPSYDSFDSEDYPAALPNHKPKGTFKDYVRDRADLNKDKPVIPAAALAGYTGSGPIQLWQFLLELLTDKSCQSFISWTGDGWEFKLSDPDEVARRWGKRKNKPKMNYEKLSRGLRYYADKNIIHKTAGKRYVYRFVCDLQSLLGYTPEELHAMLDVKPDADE
Sequence | E-score
ACGGAAGC | 0.265
GCAAACTA | 0.267
ATATGGCA | 0.33
GTTGTATA | 0.281
CGTACATA | 0.254
TGTCGGAA | 0.371
AATACAAA | 0.297
TATGGCAA | 0.26
CGGATACA | 0.294
ACGTTGTC | 0.257
CAAACTTC | 0.271
ACTTCCAC | 0.285

Sample 5
Target: RNA binding protein fox-1 homolog 2, RRM domain, GST-SBP tag (RBFOX2, Homo sapiens, UniProt O43251-10, residues 100-194)
Technique: RNA Bind-n-Seq
Form: RNA
Medium: in vitro
Concentration: 365 nM
Setting: natural RNA segment, single round, ends assumed
Reference: no-protein control
Direction: higher = stronger binding
Target sequence (chain): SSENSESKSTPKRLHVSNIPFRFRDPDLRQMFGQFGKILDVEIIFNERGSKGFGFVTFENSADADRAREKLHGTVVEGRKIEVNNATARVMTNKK
Sequence | RBNS enrichment (R)
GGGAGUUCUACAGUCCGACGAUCCACACAUCUUGAAAAAUAAAACGAUAAUAGAACUAGUGACUAAUUUUCCCUUACAGUUCCUGCUUGGUCCCACCCACUGAAGUAGCUCAUCGUAGUGCGGGCCGUAUUAGUGGAAUUCUCGGGUGCCAA | 0.308
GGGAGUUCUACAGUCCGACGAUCGUGUUGUUGAGAGGAUGAUGUUGUAAGGGUACCUUAAAACAAGAGACUCGCUUGUAUUUUAAGAGAACCAAGUGGCCAAAGAAACUCUUUCUAACUUUGGCAACAUCAGAUGGAAUUCUCGGGUGCCAA | 0.31
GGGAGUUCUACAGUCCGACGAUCUUGGAAGGAGGUGCCUAUAGAAAACGAUUUUGAACAUACUUCAUCGCAGUGGACUGUGUCCCUCGGUGCAGAAACUACCAGAUUUGAGGGACGAGGUCAAGGAGAUAUGAUGGAAUUCUCGGGUGCCAA | 0.953
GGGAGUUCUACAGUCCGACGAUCUUGGUUCUGGGAAGGUAAGAUGUAGCCAGUUUUCAUCUGGGCACCUCUGAAAGAGAAGGAGUGCAGGAGAGUAAGUCUCUCAAGGACGUUCAACAAAGGACCAGCAGCAUUGGAAUUCUCGGGUGCCAA | 1.05
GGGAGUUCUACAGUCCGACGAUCGGAGGACUGUGAGGGCGGGGCCAGGCCUGUCAGCGUUCCCACCUGCCACUCCAGAGCUGGUGCCAGGGUCAGUCUGGAGAAGCCCCUGCAAUAAGCCCCUGCAUUGCCAAUGGAAUUCUCGGGUGCCAA | 0.408
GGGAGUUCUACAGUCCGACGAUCGCUCAGAAGGCCAUAUUAUAGAAUGUCAUUUUUAAAAAAUAAAAUAUAAAGCAUACUUUCGAAAUACAAAGGACACUCAUUACAACCCCCAAACUCAGAUCCAGGUAUGAUGGAAUUCUCGGGUGCCAA | 0.529
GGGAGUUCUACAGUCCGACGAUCCUAGGGCUUCCUGGAAGUUAGUUGCCAAAGUCAUGCAAGCAUCACCUGUCAUUCUUGUGUUGGAGUUAUAGAAUUCUACAUCUUAUAAAACCUAACUGGCAUUUAAAAAAUGGAAUUCUCGGGUGCCAA | 0.621
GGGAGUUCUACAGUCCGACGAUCGGCCUUCAUCCAGGAACAGACCAACAUAAACCAGCAUCUUCUACCAGUUAGCACUGUCCUCCUGGACCAUGCUGAGGGUUGGGCCUCUCCCUCAGAGUCCUUUCUCACUGUGGAAUUCUCGGGUGCCAA | 2.03
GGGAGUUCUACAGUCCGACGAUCACCUUGGUAUUCCUUCUCAUUCAGUCCCCAGCACAUCCGGCUACCCCUAGCUCUCUCCACAUUCAUUCCUCAAGUCUCUCAUUUACAUGGUUUGACUUUUUAAUUCUAGUUGGAAUUCUCGGGUGCCAA | 0.89
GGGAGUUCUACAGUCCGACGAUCGUGAUGAACAUAUUCAUGACGCGUGGAAGUCAGUACGAUCAAGUUGUUGACUGUGAUUAGAUCACACCUUAAUUCAUUUCUAGACUCAAAACCUGGAGACGCAGCUACUGUGGAAUUCUCGGGUGCCAA | 0.22
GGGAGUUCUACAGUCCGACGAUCCUGAGUGCCAGUUGUAAAUGUUUUUCAACCAGCACCUAAAAAGACUCUUUUCAAAAAAUCACAGAAACAACCUAGGACAAUUAUUUGUUACAUAAUCCGACCUCAUAGCAUGGAAUUCUCGGGUGCCAA | 3.82
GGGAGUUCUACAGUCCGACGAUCAAUGGCUAACUGAUGAAUUAGAAGCCAUCUGACAGCAGGCCACUAGUGACAGUUUCUUUUGUGUUCCUAUGGAAACAUUUUAUACUGUACAUGCUAUGCUGAAGACAUUCUGGAAUUCUCGGGUGCCAA | 0.217

Mixed results
Molecule | target | test | test system | conditions | scale | endpoint | result
PhoQ, residues 284 288 289 292 302 303 SASVAL | PhoP, residues 12 14 15 18 19 NHTVL (Escherichia coli, UniProt P23836) | Sort-seq, refers to: YFP reporter | E. coli | PhoQ-PhoP variant library, with: 10 µM Mg2+ | reference: high Mg2+ state, higher = stronger signaling | fold induction | 0.823

A few entries again (sample 3):
Sequence | E-score
ACACGTCA | -0.0172
CGCAGCGA | -0.317
ACGCAAGT | -0.0601
CTTTGATC | -0.109
ATTGCCCG | -0.147
CATACTCA | 0.205
